Experimental data from different studies.
Each numbered part is a random draw from the data of one study; scales do not carry over between parts.
Chain of UniProt P35372 (whole entry, looked up): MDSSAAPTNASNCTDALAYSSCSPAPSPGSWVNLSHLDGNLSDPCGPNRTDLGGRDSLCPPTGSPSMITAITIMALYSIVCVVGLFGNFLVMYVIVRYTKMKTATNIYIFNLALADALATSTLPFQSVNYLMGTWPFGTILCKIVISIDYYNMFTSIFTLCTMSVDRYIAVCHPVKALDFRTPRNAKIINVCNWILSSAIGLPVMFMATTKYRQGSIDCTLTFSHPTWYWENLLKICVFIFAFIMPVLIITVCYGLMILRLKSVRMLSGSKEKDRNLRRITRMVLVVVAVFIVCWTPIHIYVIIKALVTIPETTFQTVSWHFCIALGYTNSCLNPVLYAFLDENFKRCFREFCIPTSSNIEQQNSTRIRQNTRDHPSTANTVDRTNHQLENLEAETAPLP

Series 1
Target: Beta-1 adrenergic receptor (ADRB1, Homo sapiens, UniProt P08588)
Chain of UniProt P08588 (whole entry, looked up): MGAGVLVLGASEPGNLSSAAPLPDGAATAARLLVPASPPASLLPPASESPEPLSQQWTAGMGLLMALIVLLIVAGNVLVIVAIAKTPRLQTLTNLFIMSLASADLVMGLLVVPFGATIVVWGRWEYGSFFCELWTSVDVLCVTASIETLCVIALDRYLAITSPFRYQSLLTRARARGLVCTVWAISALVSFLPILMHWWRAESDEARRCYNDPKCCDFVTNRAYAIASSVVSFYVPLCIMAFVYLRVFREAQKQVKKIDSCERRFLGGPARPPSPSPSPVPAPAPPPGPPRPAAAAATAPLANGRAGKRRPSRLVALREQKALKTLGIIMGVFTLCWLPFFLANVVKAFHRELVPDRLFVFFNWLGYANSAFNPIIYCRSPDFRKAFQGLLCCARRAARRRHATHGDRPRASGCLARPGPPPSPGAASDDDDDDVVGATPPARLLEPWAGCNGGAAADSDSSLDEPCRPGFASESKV
Action: antagonist
SMILES | IC50
C[C@@H](c1ccc2nccn2c1)n1nnc2ncc(-c3cnn(C)c3)nc21 | ≥ 100 µM
O=C1c2ccccc2C(=O)N1c1ccc2ccccc2n1 | ≥ 100 µM
Cc1cc(C(=O)N2CCc3c(nc(C)nc3N(C)C)C2)c2cccc(C)c2n1 | ≥ 100 µM
Cc1cccc(CCNc2ncc(C(C)(C)C(=O)O)c(N3CCOCC3)n2)n1 | ≥ 100 µM
Cc1cc(-c2ccccc2)nc2ccccc12 | 15.8 µM
Cc1cc(C(=O)Nc2ccc3ccccc3n2)c2cnn(C(C)C)c2n1 | ≥ 100 µM
O=Cc1cc2ccccc2nc1N1CCOCC1 | ≥ 100 µM
COc1ccc(OC)c(-c2cc(-c3ccccc3)nc3c(C)noc23)c1 | ≥ 100 µM

Series 2
Cell line: mouse MPNST tumor cells
Technique: high-content immunofluorescence imaging
Refers to: nuclear SOX9
Tested at: 10 µM
Time: 12 h
Setting: mean of 2 replicates
Reference: DMSO control
Direction: higher = more nuclear SOX9
SMILES | nuclear SOX9 intensity
CCCCNc1nc(N)c2[nH]c(=O)n(Cc3ccc(OCCN(C)C)nc3)c2n1 | 102 % of DMSO
C[C@@H]1C[C@H]2[C@@H]3C[C@H](F)C4=CC(=O)C=C[C@]4(C)[C@@]3(Cl)[C@@H](O)C[C@]2(C)[C@H]1C(=O)COC(=O)C(C)(C)C | 74.3 % of DMSO
CN(CC[C@@H](Oc1ccc(C(F)(F)F)cc1)c1ccccc1)CC(=O)O | 89.2 % of DMSO
COc1ccc(CC2c3cc(OC)c(OC)cc3CC[N+]2(C)CCC(=O)OCCCCCOC(=O)CC[N+]2(C)CCc3cc(OC)c(OC)cc3C2Cc2ccc(OC)c(OC)c2)cc1OC (stereo not shown) | 87 % of DMSO
CCOC(=O)c1cc(C#N)c(N2CCC(C(=O)NS(=O)(=O)Cc3ccccc3)CC2)nc1C | 96.3 % of DMSO
COC(=O)c1sccc1S(=O)(=O)Nc1ccc(Nc2ccccc2)cc1OC | 93.1 % of DMSO
O=C(c1ccc(F)cc1)C1CCN(CCn2c(=S)[nH]c3ccccc3c2=O)CC1 | 101 % of DMSO
CC(C)[C@H](CO)Nc1nc(Nc2ccc(C(=O)O)c(Cl)c2)c2ncn(C(C)C)c2n1 | 92.5 % of DMSO

Series 3
Cell line: HaCaT
Tested at: 100 µM
Time: 60 h
Structure (SMILES) | viability [%]
CCCOc1ccc(C(=O)OCCN(CC)CC)cc1N | 143
Cc1ccc(NC(=O)C2(c3ccc4c(c3)OC(F)(F)O4)CC2)nc1-c1cccc(C(=O)O)c1 | 122
CC1=C(C/C=C(\C)CCC[C@H](C)CCC[C@H](C)CCCC(C)C)C(=O)c2ccccc2C1=O | 115
CO[C@H]1/C=C/O[C@@]2(C)Oc3c(C)c(O)c4c(O)c(c(/C=N/N5CCN(C)CC5)c(O)c4c3C2=O)NC(=O)/C(C)=C\C=C\[C@H](C)[C@H](O)[C@@H](C)[C@@H](O)[C@@H](C)[C@H](OC(C)=O)[C@@H]1C | 108
Cc1cc(=O)[nH]c(=S)[nH]1 | 152

Mixed results
Structure (SMILES) | target | assay | setting | quantity | result
Cc1ccc(-c2cnc([C@@]3(O)CC[C@H](C(=O)O)C(C)(C)C3)s2)cc1Nc1cccc(C(F)(F)F)n1 | Mu-type opioid receptor (OPRM1, Homo sapiens, UniProt P35372) | ligand displacement | 10 µM | inhibition | 8.33%
